{"data": "Measured values pooled from the literature", "note": "Each numbered part is a random draw from the data of one study; scales do not carry over between parts. Changes are numbered by the printed parent chain."}
{"data": "Block 1", "target": "Sal-like protein 4, full length isoform B (SALL4, Homo sapiens, UniProt Q9UJQ4-2, residues 1-616)", "technique": "universal PBM", "molecule type": "double-stranded DNA, one strand shown", "matrix": "in vitro", "tested at": "not given", "setting": "8-mer, flanks averaged, mean of replicates", "reading": "higher = stronger binding"}
{"Sequence": "GTGCAGCA", "E-score": -0.192}
{"Sequence": "ACTTATGC", "E-score": 0.186}
{"Sequence": "AAACAGCC", "E-score": -0.173}
{"Sequence": "TCGGGGAA", "E-score": -0.103}
{"Sequence": "TGGCAACA", "E-score": 0.0887}
{"Sequence": "GGGCGCCC", "E-score": -0.278}
{"Sequence": "ATGATGTG", "E-score": 0.119}
{"Sequence": "ATCGTAAG", "E-score": 0.0634}
{"Sequence": "CATAGAAA", "E-score": 0.212}
{"Sequence": "CCATCATA", "E-score": 0.225}
{"data": "Block 2", "target": "ABI1, truncated, D143A, DHFR fusion (Arabidopsis thaliana)", "technique": "DHFR PCA, deep sequencing", "matrix": "yeast", "setting": "methotrexate growth selection, single substitutions", "with": "(+)-ABA 0.39 µM", "relative to": "wild-type fitted maximum", "reading": "higher = stronger binding", "starting sequence": "PYL1, truncated, DHFR fusion (Arabidopsis thaliana); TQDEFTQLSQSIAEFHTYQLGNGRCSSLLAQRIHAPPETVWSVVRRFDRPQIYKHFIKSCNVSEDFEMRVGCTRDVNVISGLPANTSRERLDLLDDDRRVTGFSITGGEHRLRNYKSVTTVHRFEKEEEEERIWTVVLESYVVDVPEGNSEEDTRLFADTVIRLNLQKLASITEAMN"}
{"Change": "S42V", "relative binding score [%]": 0.923}
{"Change": "D97H", "relative binding score [%]": 30.4}
{"Change": "N22P", "relative binding score [%]": 67.9}
{"Change": "V76C", "relative binding score [%]": 22}
{"Change": "V62W", "relative binding score [%]": -14.3}
{"Change": "V76W", "relative binding score [%]": -13.7}
{"Change": "N177L", "relative binding score [%]": 27.7}
{"Change": "R74E", "relative binding score [%]": -10.8}
{"Change": "S11T", "relative binding score [%]": 44.2}
{"Change": "R69I", "relative binding score [%]": 35.9}
{"data": "Block 3", "target": "CCND1, cyclin fold, Cln2 fusion (human)", "technique": "yeast growth competition, sequencing", "matrix": "yeast", "setting": "weak parent motif", "relative to": "not given", "reading": "higher = stronger binding", "starting sequence": "SLBP docking peptide (human); ARYKRKLLINDFG; partner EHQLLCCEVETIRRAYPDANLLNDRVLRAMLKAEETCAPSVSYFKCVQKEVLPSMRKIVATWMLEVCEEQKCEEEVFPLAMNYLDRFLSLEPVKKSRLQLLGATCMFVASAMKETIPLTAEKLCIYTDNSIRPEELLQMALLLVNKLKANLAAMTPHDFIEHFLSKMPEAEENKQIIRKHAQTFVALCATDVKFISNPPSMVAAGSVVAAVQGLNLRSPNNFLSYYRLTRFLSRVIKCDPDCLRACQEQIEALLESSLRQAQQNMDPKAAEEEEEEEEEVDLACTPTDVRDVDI"}
{"Change": "R2V", "normalised enrichment score": -0.138}
{"Change": "D11I", "normalised enrichment score": 0.492}
{"Change": "A1Q", "normalised enrichment score": -0.936}
{"Change": "N10I", "normalised enrichment score": 0.316}
{"Change": "A1K", "normalised enrichment score": -0.902}
{"Change": "L7A", "normalised enrichment score": -0.542}
{"Change": "R5S", "normalised enrichment score": 0.712}
{"Change": "F12A", "normalised enrichment score": -0.133}
{"Change": "R5V", "normalised enrichment score": 0.486}
{"Change": "L7R", "normalised enrichment score": -0.409}
{"Change": "L8I", "normalised enrichment score": -0.0815}
{"data": "Single results of other studies"}
{"Substance": "PhoQ, residues 284 288 289 292 302 303 SSCLAV", "target": "PhoP, residues 12 14 15 18 19 TTLRV (Escherichia coli, UniProt P23836)", "test": "Sort-seq, refers to: YFP reporter", "test system": "E. coli", "conditions": "PhoQ-PhoP variant library, with: 10 µM Mg2+", "scale": "relative to: high Mg2+ state, higher = stronger signaling", "quantity": "fold induction", "result": 8.66}
{"note": "Repeated from above (block 1):"}
{"Sequence": "TCGGGGAA", "E-score": -0.103}
{"Sequence": "TGGCAACA", "E-score": 0.0887}
{"Sequence": "GGGCGCCC", "E-score": -0.278}
{"Sequence": "ATGATGTG", "E-score": 0.119}
